Measured values pooled from the literature.
Lines come from different studies, so protocols differ. ± marks the error that the study gave.
B1: FGL1 fibrinogen-like domain 58-312 (Homo sapiens, UniProt Q08830); sequence looked up; chain NEVQFLDKGDENTVIDLGSKRQYADCSEIFNDGYKLSGFYKIKPLQSPAEFSVYCDMSDGGGWTVIQRRSDGSENFNRGWKDYENGFGNFVQKHGEYWLGNKNLHFLTTQEDYTLKIDLADFEKNSRYAQYKNFKVGDEKNFYELNIGEYSGTAGDSLAGNFHPEVQWWASHQRMKFSTWDRDHDNYEGNCAEEDQSGWWFNRCHSANLNGVYYSGPYTAKTDNGIVWYTWHGWWYSLKSVVMKIRPNDFIPNVI
B2: acpP (Escherichia coli, UniProt P0A6A8); phosphopantetheine crosslinker on serine; sequence looked up; chain MSTIEERVKKIIGEQLGVKQEEVTNNASFVEDLGADSLDTVELVMALEEEFDTEIPDEEAEKITTVQAAIDYINGHQA
B3: LY96 LOS-bound (Homo sapiens, UniProt Q9Y6Y9); sequence looked up; chain QKQYWVCNSSDASISYTYCDKMQYPISINVNPCIELKRSKGLLHIFYIPRRDLKQLYFNLYITVNTMNLPKRKEVICRGSDDDYSFCRALKGETVNTTISFSFKGIKFSKGKYKCVVEAISGSPEEMLFCLEFVILHQPNSN
Sequence of UniProt P0CH43 (whole entry, looked up): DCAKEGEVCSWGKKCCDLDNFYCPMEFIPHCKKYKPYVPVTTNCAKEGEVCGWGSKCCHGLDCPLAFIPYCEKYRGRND
Sequence of UniProt Q9QUK6 (whole entry, looked up): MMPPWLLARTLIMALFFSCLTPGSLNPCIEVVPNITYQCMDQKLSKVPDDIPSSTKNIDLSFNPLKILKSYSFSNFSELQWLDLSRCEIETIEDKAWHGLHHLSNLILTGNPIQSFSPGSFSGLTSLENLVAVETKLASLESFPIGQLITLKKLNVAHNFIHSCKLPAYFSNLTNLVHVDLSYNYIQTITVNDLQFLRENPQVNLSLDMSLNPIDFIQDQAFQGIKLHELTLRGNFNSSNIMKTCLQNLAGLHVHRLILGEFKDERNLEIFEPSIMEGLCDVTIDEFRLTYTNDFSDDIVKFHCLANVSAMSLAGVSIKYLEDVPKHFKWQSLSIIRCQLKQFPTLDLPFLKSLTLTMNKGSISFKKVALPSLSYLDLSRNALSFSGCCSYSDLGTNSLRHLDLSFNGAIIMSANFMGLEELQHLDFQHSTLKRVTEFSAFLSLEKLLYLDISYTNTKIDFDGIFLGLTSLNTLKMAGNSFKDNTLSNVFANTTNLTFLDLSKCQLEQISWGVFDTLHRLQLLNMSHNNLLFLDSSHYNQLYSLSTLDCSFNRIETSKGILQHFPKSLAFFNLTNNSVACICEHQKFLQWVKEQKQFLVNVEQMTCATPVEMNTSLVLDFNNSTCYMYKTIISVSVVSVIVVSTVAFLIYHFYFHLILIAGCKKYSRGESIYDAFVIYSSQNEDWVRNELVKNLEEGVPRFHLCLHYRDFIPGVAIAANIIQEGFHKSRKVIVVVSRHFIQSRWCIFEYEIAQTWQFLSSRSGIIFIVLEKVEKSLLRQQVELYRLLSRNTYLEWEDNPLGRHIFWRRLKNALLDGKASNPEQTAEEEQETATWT
Sequence of UniProt P0AAI5 (whole entry, looked up): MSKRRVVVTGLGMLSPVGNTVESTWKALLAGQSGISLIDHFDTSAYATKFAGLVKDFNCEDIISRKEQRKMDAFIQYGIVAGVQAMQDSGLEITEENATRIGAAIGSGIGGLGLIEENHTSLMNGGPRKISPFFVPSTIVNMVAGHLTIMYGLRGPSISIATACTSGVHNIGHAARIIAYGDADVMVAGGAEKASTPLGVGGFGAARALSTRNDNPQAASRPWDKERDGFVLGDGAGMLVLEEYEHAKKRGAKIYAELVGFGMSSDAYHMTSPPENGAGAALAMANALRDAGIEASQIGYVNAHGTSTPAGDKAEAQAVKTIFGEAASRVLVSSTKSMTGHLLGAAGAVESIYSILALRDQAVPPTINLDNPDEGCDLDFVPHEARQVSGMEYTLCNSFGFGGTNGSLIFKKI

| Substance | tested on | assay | test system | conditions | how to read | quantity | result |
| --- | --- | --- | --- | --- | --- | --- | --- |
| B1 | LAG3 extracellular domain (Homo sapiens) | SPR | – | 20 °C | – | Kd | 3200 nM |
| Retatrutide | GLP1R (Homo sapiens, UniProt P43220) | β-arrestin-2 recruitment, BRET | HEK293T | – | reference: GLP-1, higher = stronger response | maximal response | 58 % GLP-1 |
| melittin | – | CD titration | POPC 75% POPG 25% vesicles | pH 7.0, 50 °C | – | free energy of partitioning | -7.28 kcal/mol |
| Z13e1 Fab (human) | env peptide residues 668-683 (HIV-1) | ITC | – | 303 K, single-site model | – | ΔH | -15.7 kcal/mol |
| AGATGGACGAACCAGTGAGTGTTGATTATTAAGGTACCCC (dsDNA) | HapB/HapC/HapE/HapX HapX 24-158 (Aspergillus fumigatus) | SPR | double-stranded DNA, one strand shown | HapX on preformed CBC:DNA | – | Kd | < 100 nM |
| protein (Streptomyces exfoliatus, UniProt O87916) | PBP2a residues 41-end (Staphylococcus aureus) | ITC | – | – | – | Kd | 244 nM |
| JIP-1 peptide fragment L150R, 6-aminohexanoyl linker to inverted TAT | Mapk14 (Mus musculus, UniProt P47811-1) | D-site substrate peptide phosphorylation, inhibitor, in vitro kinase assay | – | 10 nM, control peptide, point mutant, with: substrate peptide 10 µM | – | IC50 | 447000 nM |
| B2 (acpP) | fabF (Escherichia coli, UniProt P0AAI5) | cross-linking | – | 1 h, pH 7.0, 37 °C | – | binding | binds |
| SKA1 fragment (Homo sapiens) (sequence not shown) | TUBA1B/TUBB2B taxol-stabilized microtubules | co-sedimentation | – | KCl 75 mM, apparent | – | Kd | 2500 nM |
| B3 (LY96 LOS-bound) | Tlr4 (Mus musculus, UniProt Q9QUK6) | radioligand binding | HEK293 expressing TLR4 | 30 min, pH 7.4, 37 °C, Scatchard analysis, in cells | – | Kd | 0.572 ± 0.015 nM |
| DkTx (UniProt P0CH43) | Trpv1 A657P (Rattus norvegicus, UniProt O35433) | channel activation | – | – | reference: wild type channel, higher = weaker potency | potency drop | 100 fold |

Repeated from above:
| Substance | tested on | assay | test system | conditions | how to read | quantity | result |
| --- | --- | --- | --- | --- | --- | --- | --- |
| SKA1 fragment (Homo sapiens) (sequence not shown) | TUBA1B/TUBB2B taxol-stabilized microtubules | co-sedimentation | – | KCl 75 mM, apparent | – | Kd | 2500 nM |
